Results pooled from the literature.
A part holds a random share of what one study measured. Positions count from the first letter of the parent shown.

Study 1
Target: ABI1, truncated, D143A, DHFR fusion (Arabidopsis thaliana)
Technique: DHFR PCA, deep sequencing
Sample: yeast
Notes: methotrexate growth selection, single substitutions
With: (+)-ABA 0 µM
Baseline: wild-type fitted maximum
Reading: higher = stronger binding
Starting sequence: PYL1, truncated, DHFR fusion (Arabidopsis thaliana); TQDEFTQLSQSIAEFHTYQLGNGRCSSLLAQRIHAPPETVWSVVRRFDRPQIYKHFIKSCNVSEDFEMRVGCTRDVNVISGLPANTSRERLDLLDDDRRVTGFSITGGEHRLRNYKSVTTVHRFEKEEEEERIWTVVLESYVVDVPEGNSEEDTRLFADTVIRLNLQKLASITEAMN
Variant	relative binding score
E89R	-1.34%
H34Y	28.7%
R132S	40.9%
S171P	2.63%
L166N	-6.05%
F157N	1.11%
L164P	9.93%
E129I	4.56%
S63G	38.1%
F66L	-1.5%
G23A	3.71%
V43L	16.4%
E38R	1.15%
D65R	7.33%
T135N	-6.62%
Q7P	6.63%
L169T	-4.54%
T1N	24.9%
E151F	-7.07%
I57Q	-3.02%
Q31D	-1.58%
G102Y	-4.85%
E151W	3.66%

Study 2
Target: CCNB1, cyclin fold, Cln2 fusion (human)
Technique: yeast growth competition, sequencing
Sample: yeast
Notes: weak parent motif
Baseline: not given
Reading: higher = stronger binding
Starting sequence: PPP1R3F docking peptide (human); VAPRRVLFADEAL
Variant	normalised enrichment score
F8A	-0.055
R5A	0.436
L13A	-0.0773
F8L	0.139
D10A	0.959
V6A	0.338

Study 3
Target: Ras GTPase-activating protein-binding protein 1, RRM domain (G3BP1, Homo sapiens, UniProt Q13283)
Chain of UniProt Q13283 (whole entry, looked up): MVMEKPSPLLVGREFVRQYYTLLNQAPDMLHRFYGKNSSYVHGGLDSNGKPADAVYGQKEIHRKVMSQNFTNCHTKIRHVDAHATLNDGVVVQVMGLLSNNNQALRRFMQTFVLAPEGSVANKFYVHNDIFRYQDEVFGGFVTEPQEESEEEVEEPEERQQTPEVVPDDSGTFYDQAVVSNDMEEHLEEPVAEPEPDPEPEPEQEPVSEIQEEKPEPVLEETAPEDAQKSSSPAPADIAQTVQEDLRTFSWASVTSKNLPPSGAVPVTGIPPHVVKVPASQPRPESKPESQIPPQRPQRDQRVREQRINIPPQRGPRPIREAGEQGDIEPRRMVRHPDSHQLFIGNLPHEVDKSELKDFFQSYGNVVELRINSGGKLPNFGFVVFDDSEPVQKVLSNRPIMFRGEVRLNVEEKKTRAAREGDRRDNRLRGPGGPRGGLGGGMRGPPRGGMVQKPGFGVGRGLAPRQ
Technique: RNA Bind-n-Seq
Molecule type: RNA
Sample: in vitro
Tested at: 1 µM
Notes: whole 134-nt RNA, ends assumed
With: 150 mM KCl
Baseline: input library
Reading: higher = stronger binding
All sequences stand within: GGGAGUUCUACAGUCCGACGAUC … UGGAAUUCUCGGGUGUCAAGG
Strand	log2 enrichment
GCAGGAAGUAAAAACAAAUGGAAAUGCUUCGGAUAGUGGCAGGGGUGGGGGUUGCUAAGGAAAGGGUGGGAUGGGAAAGGGUAAAGAGUU	1.31
CACAGACAACACGCACCCACACAGACACAGAGGGAAGGGGUUGGGAUGGGGACAGGGUGCACAGCAGGGCGCGGUAGGACCCCAGCCCCU	-0.296
CAAACUUAAAGUCUCCCUUGCUCGGAAGAAGCCUCCAAUGAACAGUAUGCGGGGUGGUCUGCCACCCCGUGAGGGCAGAGGCAUGCCACC	-0.334
AAGUCCUGUGCUACACAUCGUAUGUACCGAAUCAAAUUUAAACCCCCAAAUUUAAAAAAGUAUUAUGUUACGCCGUUCGGAUCUGCACUU	-0.0632
AGUCCUGUGCUACACAUCGUAUGUACCGAAUCGGGGCCCCCGGCCCCCGGGCCCCCGGAAAGUAUUAUGUUACGCCGUUCGGAUCUGCAC	-0.764
CAAGUCCUGUGCUACACAUCGUAUGUACCGAAUCGGUUUUUGGUUUUUUUGGAGGAAAGUAUUAUGUUACGCCGUUCGGAUCUGCACUUC	-0.262
AGUCCUGUGCUACACAUCGUAUGUACCGAAUCGGGGAAAGGGGUUUGGGGUUUGGGGAAAGUAUUAUGUUACGCCGUUCGGAUCUGCACU	1.6
UGUGCUACACAUCGUAUGUACCGAAUCGGGGUUUUUGGGGAAAAAAAGGGGAAAAAAAGGGGAAAGUAUUAUGUUACGCCGUUCGGAUCU	1.2
UGGCCCGCCGUCCUGAGGAAGCUGAGGUUCACUGCGGUGCCCAAGAACCACCAGGCGGUCCGGAACCCGUGAGCGGCUGCCAGGGGCUCU	-0.498

Study 4
Target: Interferon regulatory factor 7, full length, phosphomimetic (IRF7, Homo sapiens, UniProt Q92985, residues 1-503, S101K/S471D/S472D/S475D/S476D/S477D/S483D/S484D/S487D)
Technique: protein-binding microarray
Molecule type: double-stranded DNA, one strand shown
Sample: in vitro
Tested at: 250 nM
Notes: 60-bp whole probe
With: salmon DNA 0.4 mg/ml
Baseline: random background probes
Reading: higher = stronger binding
All sequences stand within: GCCTAGCAC … GTCTTGATTCGCTTGACGCTGCTG
Residues (chain): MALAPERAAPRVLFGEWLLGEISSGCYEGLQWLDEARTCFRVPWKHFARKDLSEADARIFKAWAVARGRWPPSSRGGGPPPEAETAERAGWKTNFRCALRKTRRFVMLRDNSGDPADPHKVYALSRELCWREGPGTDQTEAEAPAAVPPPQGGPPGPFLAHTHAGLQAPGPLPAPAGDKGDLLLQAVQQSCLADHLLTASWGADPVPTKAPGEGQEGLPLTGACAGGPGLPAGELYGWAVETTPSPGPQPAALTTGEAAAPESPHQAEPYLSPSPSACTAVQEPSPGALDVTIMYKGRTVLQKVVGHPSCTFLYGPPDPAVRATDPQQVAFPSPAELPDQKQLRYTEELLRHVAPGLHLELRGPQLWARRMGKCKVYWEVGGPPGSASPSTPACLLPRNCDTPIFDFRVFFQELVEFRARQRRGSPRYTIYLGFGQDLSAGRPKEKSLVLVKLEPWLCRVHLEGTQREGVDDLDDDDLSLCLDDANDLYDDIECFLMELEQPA
Strand	log fluorescence [z-score]
TCGTAAGCAAAAATGATTGGGTGCTAG	-0.0329
TTAGATATCGGGTATCGATCAGTGCTA	0.254
TCATGTGTGTGTATGTGACTGTGCTAG	-0.552
TCATTCTTTTTTTTCTTACTGTGCTAG	1.29
TTAGATTCCACTTTCGATTAGTGCTAG	5.48
GAGGATTTCGGGACTGGAGACGTGCTA	-0.482
TCAATTTTTTTTCTAACACTGTGCTAG	0.486
GACGGTTCCGGTTTCCGGACGTGCTAG	6.97
GACGATACCAGTTTCGAGACGTGCTAG	4.35
GACCGTATCGGGTTTCGGGACGTGCTA	2.85
GACGGTCTACTTCTCCTGACGTGCTAG	-0.059
TTAGTTATCGACACTGGGTTAGTGCTA	0.178
GGAGGCCTCTTCATTCATTAAGTGCTA	-0.777
GATGGTCTCGGTCTCGGGACGTGCTAG	0.869
TTAGAACTGGAGTATCGATTAGTGCTA	0.0961
TTAGGTATCGGTATCGGTTGGTGCTAG	2.55
TCATCTGTGCCTTTTTTACTGTGCTAG	0.233
TTAGGTATCGGCTTCGGTTAGTGCTAG	0.941
GACGGTATCGGTCTCGGGTCGTGCTAG	1.51

Excerpt of the above (study 1):
Variant	relative binding score
T1N	24.9%
I57Q	-3.02%
G23A	3.71%
T135N	-6.62%
G102Y	-4.85%
E151F	-7.07%
E38R	1.15%
V43L	16.4%
L166N	-6.05%
Q31D	-1.58%
